# Assay results from different studies.
# Compare with care: the assays were run in different laboratories. “And” joins repeats or separate records; there may be more than shown.
# Target: Interferon-induced, double-stranded RNA-activated protein kinase (EIF2AK2, Homo sapiens, UniProt P19525)
Compound,test,system,setting,scale,quantity,result
Cc1cnc2nc1Nc1cccc(c1)COC/C=C/COCc1cc(ccc1OCCN1CCOCC1)N2,,,"concentration not given, kinase construct PRKR",baseline: control,binding,91%
CN1CC[C@@H](COc2cnc(C#N)cc2-c2ccn3nc(NC(=O)C4CC4)cc3c2)C1,"enzyme activity, inhibitor",,1 µM,,inhibition,-11%
O=C(Cc1ccc(OCc2ccccc2)cc1)NC1(C(=O)O)CCN(C(=O)c2ccc(-c3cccc(Cl)c3)cc2)CC1,"enzyme activity, inhibitor",,10 µM,,activity vs control,95%
N[C@H]1CC[C@H](Nc2nccc(-c3cccnc3Oc3ccc(NC(=O)NC4CC4)c4ccccc34)n2)CC1,kinobead competition pulldown,HEK293/HCT116 lysate mixture,"10 µM, 1 h, 4 °C",lower = stronger competition,log2 LFQ intensity,24 and 24.3
Cc1ccc(-c2c(/C=C(\C#N)C(=O)NC(C)C)n(CCCO)c3ncnc(N)c23)cc1,"cell-free assay, competition with immobilised ligand",,1 µM,,remaining binding,100%
CNC(=O)C1CCN(c2cc(C)c(F)cc2NC(=O)c2ccc(-c3cc(O)ccc3C)c(C)c2)CC1,"binding, competition with immobilised ligand",,1 µM,,remaining binding,100%
CN1CCN(Cc2ccc(-c3ccc(CO[C@H]4CCC[C@@H]4NC(=O)c4cc(-c5cnn(C)c5)cnc4N)cc3)cc2)CC1,"enzyme activity, inhibitor",,0.1 µM,,inhibition,-2%
CC(C)=CC1OC(C)(C)C2C=C3C(=O)C(Cl)=CC(O)C3C3C(O)C4OC4C(=O)C132 (stereo not shown),"cell-free assay, competition with immobilised ligand",,10 µM,,remaining binding,100%
Cc1cc(NC(=O)[C@H](O)c2cc(F)cc(F)c2)ccc1-c1cnc(N)c(C(=O)NC(C)C)c1,"binding, competition with immobilised ligand",,1 µM,,remaining binding,100%
C=CC(=O)N1CCc2ccc(-n3c(=O)ccc4cnc5ccc(-c6cnn(C)c6)cc5c43)cc21,KINOMEscan,,1 µM,baseline: DMSO control,remaining binding,100%
Nc1ncc2c(n1)-c1c([nH]c3ccc(C4=CCOCC4)cc13)CCC2,"binding, competition with immobilised ligand",,1 µM,,remaining binding,100%
CNC1C[S+]2CC[S+]3CC[S+](C1)[Ru-4]321([N]=C=S)[n]2c3ccc(OC)cc3c3c4c(c5cc(F)c[n+]1c5c32)C(=O)NC4=O (stereo not shown),KinomeScan,,0.1 µM,baseline: untreated,remaining binding,68%
COc1c(Cl)cccc1Nc1c(-c2ccncc2C#C[C@@]2(C)CCCN2C(=O)/C=C/CN(C)C)[nH]c2c1C(=O)NCC2,"binding, competition with immobilised ligand",,3 µM,,remaining binding,97%
COc1cc(Nc2nccc(-c3cnn4nc(OC)ccc34)n2)cc(C(F)(F)F)c1,"binding, competition with immobilised ligand",,1 µM,,remaining binding,100%
CCN1CCN(Cc2ccc(C(=O)Nc3ccc(C)c(NCc4cnc5[nH]ccc5c4OC)c3)cc2C(F)(F)F)CC1,"binding, competition with immobilised ligand",,1 µM,,remaining binding,92%
C=CC(=O)N1CCCC(n2c(=O)c3ncccc3n(Cc3ccc(Oc4ccccc4)cc3)c2=O)C1 (stereo not shown),"cell-free assay, competition with immobilised ligand",,1 µM,,remaining binding,87%
COc1cc(Nc2nc(C)cc(-c3cnn4nc(OC)ccc34)n2)cc(C(F)(F)F)c1,KINOMEscan,,"1 µM, PRKR",baseline: DMSO,remaining binding,100%
COCC12C(=O)NC3C4(C(OC)CC1O)C1CC5(O)C(OC)C(O)C(OC(C)=O)(C1C5OC(=O)c1ccccc1)C3(O)C(OC)C24 (stereo not shown),"kinase activity, inhibitor, ProQinase kinase profiling",,25 µM,baseline: control,remaining activity,84% and 104%
CCn1cc(C(=O)O)c(=O)c2c(N)c(F)c(NC3CCCCC3)cc21,kinase activity,,"0.1 µM, together with: ATP at Km",,inhibition,6.2%

# Excerpt of the above:
Compound,test,system,setting,scale,quantity,result
COc1cc(Nc2nccc(-c3cnn4nc(OC)ccc34)n2)cc(C(F)(F)F)c1,"binding, competition with immobilised ligand",,1 µM,,remaining binding,100%
CCN1CCN(Cc2ccc(C(=O)Nc3ccc(C)c(NCc4cnc5[nH]ccc5c4OC)c3)cc2C(F)(F)F)CC1,"binding, competition with immobilised ligand",,1 µM,,remaining binding,92%
